Published values from different studies.
“And” joins repeats or separate records; there may be more than shown. ± gives the spread as reported.

CC(C)[C@H](NC(=O)[C@@H]1CCCN1C(=O)[C@H](CCCNC(=N)N)NC(=O)[C@H](CS)NC(=O)[C@H](Cc1c[nH]c2ccccc12)NC(=O)[C@H](CCCNC(=N)N)NC(=O)[C@@H](Cc1ccccc1)NC(=O)[C@H](Cc1c[nH]cn1)NC(=O)[C@H](CCC(=O)O)NC(=O)[C@H](CS)NC(=O)[C@H](CS)NC(=O)CNC(=O)[C@@H]1CC(=O)N[C@@H](CCCNC(=N)N)C(=O)NCC(=O)N[C@@H](CC(=O)O)C(=O)N[C@H](Cc2ccc(O)cc2)C(=O)N1)C(N)=O [technetium-99m labelled] — tissue uptake (C57 mice B16/F1 melanoma female, spleen; iv, 2 h, added: NDP-MSH 10 µg co-injected): 1.28 ± 0.68 %ID/g
O=C([O-])CN1CCN(CC(=O)[O-])CCN(CC(=O)NCCc2ccc3c(c2)C2C=CCC2C(c2cc4c(cc2Br)OCO4)N3)CCN(CC(=O)[O-])CC1.[111In+3] (stereo not shown) — tissue uptake (mice with Hec50 tumour xenograft, adrenals; 2 h, added: G-1 5 µg blocking): 0.55 ± 0.14 %ID/g
NC12CNCCNCC(NCc3ccc(CNC(=O)CCCC(=O)NCc4ccc(-c5nncnn5)cc4)cc3)(CNCCNC1)CNCCNC2.[64Cu+2] — tissue uptake (athymic nude mice SW1222 xenograft, tumor; 12 h post injection, 24 h accumulation interval, added: huA33-TCO pretargeting): 6.74 %ID/g and 6.7 %ID/g
O=C([O-])CN1CCN(CC(=O)[O-])CCN(CC(=O)[O-])CCN(CC(=O)[O-])CC1.[64Cu+2] — tissue uptake (healthy athymic nude mice, small intestine; intravenous, 4 h): 0.88 %ID/g
O=C([O-])CN1CCN(CC(=O)[O-])CCN(CC(=O)NC[C@H]2CC[C@H](C(=O)N[C@H](Cc3cnc4ccccc4c3)C(=O)NCCCC[C@H](NC(=O)N[C@@H](CCC(=O)O)C(=O)O)C(=O)O)CC2)CCN(CC(=O)[O-])CC1.[64Cu+2] — tissue uptake (ex vivo gamma counting; 22Rv1 tumour-bearing mice, tumor; intravenous, 0.74 MBq, 1 h): 13.1 ± 4.12 %ID/g
CCCC[C@H](NC(=O)CNC(=O)CNC(=O)CN1CCN(CC(=O)O)CCN(CC(=O)O)CCN(CC(=O)O)CC1)C(=O)N[C@H]1CC(=O)NCCCC[C@@H](C(N)=O)NC(=O)[C@H](Cc2c[nH]c3ccccc23)NC(=O)[C@H](CCCNC(=N)N)NC(=O)[C@@H](Cc2ccccc2)NC(=O)[C@H](Cc2c[nH]cn2)NC1=O [gallium-67 labelled] — tissue uptake (C57 mice, female, B16/F1 melanoma, intestines; intravenous, 0.037 MBq, 24 h): 0.46 ± 0.06 %ID
CCCC[C@@H]1NC(=O)[C@@H](NC(=O)[C@H](CCC(=O)O)NC(=O)CNC(=O)CN2CCN(CC(=O)O)CCN(CC(=O)O)CCN(CC(=O)O)CC2)CCCCNC(=O)C[C@@H](C(N)=O)NC(=O)[C@H](C(C)C)NC(=O)[C@@H]2CCCN2C(=O)[C@H](CCCNC(=N)N)NC(=O)CNC(=O)[C@H](Cc2c[nH]c3ccccc23)NC(=O)[C@H](CCCNC(=N)N)NC(=O)[C@@H](Cc2ccccc2)NC(=O)[C@H](Cc2c[nH]cn2)NC(=O)[C@H](CCC(=O)O)NC1=O [gallium-67 labelled] — tissue uptake (C57 mice, B16/F1 flank melanoma, lung; intravenous, 2 h, added: blocking peptide 10 µg): 0.04 ± 0.03 %ID/g
O=C(NCC1OC2CCC=CCCC2O1)c1ccc([18F])nc1 (stereo not shown) — tissue uptake (female BALB/c nude mice, liver; intravenous, 10 min): 17.1 ± 6.9 %ID/g
CCCC[C@H](NC(=O)CN1CCC(NC(=O)CN2CCN(CC(=O)O)CCN(CC(=O)O)CCN(CC(=O)O)CC2)CC1)C(=O)N[C@H]1CC(=O)NCCCC[C@@H](C(N)=O)NC(=O)[C@H](Cc2c[nH]c3ccccc23)NC(=O)[C@H](CCCNC(=N)N)NC(=O)[C@@H](Cc2ccccc2)NC(=O)[C@H](Cc2c[nH]cn2)NC1=O [gallium-68 labelled] — tissue uptake (male C57BL/6J mice, B16-F10 tumours, liver; intravenous, 1 h, blocking study, added: 100 µg non-radioactive Ga-peptide): 1.4 ± 0.6 %ID/g
N=C(N)NCCC[C@@H]1NC(=O)[C@H](CCCCNC(=O)CON=C[C@H](F)[C@@H](O)[C@H](O)[C@H](O)CO)NC(=O)[C@@H](Cc2ccc(O)cc2)NC(=O)[C@H](CC(=O)O)NC(=O)CNC1=O [fluorine-18 labelled] — tissue uptake (nude mice U-87 MG tumour, muscle; intravenous, 0.5 h): 0.3 ± 0.1 %ID/g
O=C([O-])c1cccc(CN(CCN(Cc2cn(Cc3ccccc3)nn2)Cc2cccc(C(=O)[O-])n2)Cc2cn(Cc3ccccc3)nn2)n1.[64Cu+2] — tissue uptake (healthy athymic nude mice, large intestine; intravenous, 24 h): 1.93 %ID/g
CCCC[C@H](NC(=O)CNC(=O)CNC(=O)CN1CCN(CC(=O)O)CCN(CC(=O)O)CC1)C(=O)N[C@H]1CC(=O)NCCCC[C@@H](C(N)=O)NC(=O)[C@H](Cc2c[nH]c3ccccc23)NC(=O)[C@H](CCCNC(=N)N)NC(=O)[C@@H](Cc2ccccc2)NC(=O)[C@H](Cc2c[nH]cn2)NC1=O [gallium-67 labelled] — tissue uptake (female C57 mice, B16/F1 melanoma, spleen; intravenous, 0.037 MBq, 2 h): 0.67 ± 0.19 %ID/g
CN1C(=O)[C@@H](Cc2ccc(O)c(I)c2)NC(=O)CNC(=O)[C@H](Cc2ccc3ccccc3c2)NC(=O)[C@H](CCCNC(=N)N)NC(=O)[C@H]1CCCNC(=O)c1ccc(CNC(=O)CN2CCN(CC(=O)O)CCN(CC(=O)O)CCN(CC(=O)O)CC2)cc1 [lutetium-177 labelled] — tissue uptake (item: 177Lu radioactivity; female CB-17 SCID mice, Daudi xenograft, skin; intravenous, 0.16 nmol per mouse, 48 h): 0.11 ± 0.02 %ID/g

A few entries again:
O=C([O-])CN1CCN(CC(=O)[O-])CCN(CC(=O)NC[C@H]2CC[C@H](C(=O)N[C@H](Cc3cnc4ccccc4c3)C(=O)NCCCC[C@H](NC(=O)N[C@@H](CCC(=O)O)C(=O)O)C(=O)O)CC2)CCN(CC(=O)[O-])CC1.[64Cu+2] — tissue uptake (ex vivo gamma counting; 22Rv1 tumour-bearing mice, tumor; intravenous, 0.74 MBq, 1 h): 13.1 ± 4.12 %ID/g
CCCC[C@H](NC(=O)CNC(=O)CNC(=O)CN1CCN(CC(=O)O)CCN(CC(=O)O)CCN(CC(=O)O)CC1)C(=O)N[C@H]1CC(=O)NCCCC[C@@H](C(N)=O)NC(=O)[C@H](Cc2c[nH]c3ccccc23)NC(=O)[C@H](CCCNC(=N)N)NC(=O)[C@@H](Cc2ccccc2)NC(=O)[C@H](Cc2c[nH]cn2)NC1=O [gallium-67 labelled] — tissue uptake (C57 mice, female, B16/F1 melanoma, intestines; intravenous, 0.037 MBq, 24 h): 0.46 ± 0.06 %ID
